Measurements collected from several papers.
Numbered parts are unrelated; each lists some results of a single study. Substitutions count along the parent as printed.

Block 1
Target: CCNB2, cyclin fold, Cln2 fusion (human)
Method: yeast growth competition, sequencing
Medium: yeast
Notes: weak parent motif
Reference: not given
Reading: higher = stronger binding
Parent: PKN2 docking peptide (human); VSAVRKLDFSDTM; partner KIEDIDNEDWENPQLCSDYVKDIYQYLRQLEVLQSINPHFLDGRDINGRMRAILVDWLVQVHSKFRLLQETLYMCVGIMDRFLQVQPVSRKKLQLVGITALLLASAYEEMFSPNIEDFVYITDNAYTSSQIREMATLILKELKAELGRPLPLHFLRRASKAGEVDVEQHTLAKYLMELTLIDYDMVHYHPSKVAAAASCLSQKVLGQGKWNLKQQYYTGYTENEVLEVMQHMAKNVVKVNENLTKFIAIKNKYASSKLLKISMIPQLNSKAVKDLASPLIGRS
Change	normalised enrichment score
VSAVRDLDFSDTM [K6D]	-0.442
VSAVRPLDFSDTM [K6P]	-1.45
VSAFRKLDFSDTM [V4F]	-0.041
VSADRKLDFSDTM [V4D]	-0.287
VSAVRKLDLSDTM [F9L]	0.00315
VSAVRKLDFSCTM [D11C]	0.35
VSAVKKLDFSDTM [R5K]	0.215
VSAVRKLQFSDTM [D8Q]	0.0263
VSAVRKLDFIDTM [S10I]	-0.0191
VSATRKLDFSDTM [V4T]	0.397
VGAVRKLDFSDTM [S2G]	0.508
VSAVRWLDFSDTM [K6W]	0.165
VSAVCKLDFSDTM [R5C]	0.486
VTAVRKLDFSDTM [S2T]	0.601
VSAVRKLPFSDTM [D8P]	0.132
VSAVRKLDFPDTM [S10P]	0.156
VSAVRKHDFSDTM [L7H]	0.3
VSAVRRLDFSDTM [K6R]	0.971
VSAVRKLDKSDTM [F9K]	0.186
VSAVRKLDFSTTM [D11T]	0.196
VSTVRKLDFSDTM [A3T]	0.496
VSAVRKLDASDTM [F9A]	0.0409
VSAVRKLDDSDTM [F9D]	-0.0826
VSPVRKLDFSDTM [A3P]	0.486
VSAVRKSDFSDTM [L7S]	0.331

Block 2
Target: RNA binding protein fox-1 homolog 2, RRM domain, GST-SBP tag (RBFOX2, Homo sapiens, UniProt O43251-10, residues 100-194)
Method: RNA Bind-n-Seq
Molecule type: RNA
Medium: in vitro
Tested at: 365 nM
Notes: natural RNA segment, single round, ends assumed
Reference: no-protein control
Reading: higher = stronger binding
Constant ends, left off below: GGGAGUUCUACAGUCCGACGAUC … UGGAAUUCUCGGGUGCCAA
Target sequence (chain): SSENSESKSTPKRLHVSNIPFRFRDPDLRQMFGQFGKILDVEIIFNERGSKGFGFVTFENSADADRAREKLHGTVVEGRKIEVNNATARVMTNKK
Oligonucleotide	RBNS enrichment (R)
GUAUUGCUGAAUUUGCAGUUAUGUUGUCGUGUAUAAGAGCUACUUCCAAGUGUGGUUACAAAUGAACCCAUGGAAUGAUGACUUCAUGUUCUUCUCGUGGGUUUGUGCCG	0.224
UUUGUCUGAAUGUGAAAUAUCCCCCAUUUUAUCCCAUAAAUCAUUUGUUUUCCAAUGAUGUGUAUUUGGGGGGAAGGGAGGAUUGCUUGUAAUCUGGUGUUGAACAACUA	0.5
AUUAAUUUAUUCUUUUUUUCUUAAAGAAGAAAAAGACAUUGGUUGUUGUUACAAAAAGUCUAAAUUACUGUUGGUUGAAACACAGCAGCUGUGGAGUUCAGUCCAGGCAU	0.418
UCUACUCCCUCUGAGAGUUUUCAACAUCAGUUGAUUGAGCUUCAGGCUUUCCAACGUUAUCCCUGUAGAGAUCAUCUUUACAGUUCCUCGGGAAAAUGUGAAUGUGCCGC	0.48
AACGUACUCACCGCCGCGGACAAUCCCCCACCCCGAUCCCUCGCCAGACCAGGACGCUUCCUCAAGCCCAGCCUUCUACAGAGAGUGUGAACGGUACAGCCCCGGCCUGA	0.194
GGGUAAAGAGAUUUCUAUAGAACGAAUUUGGGAGGCCAGUGAGAUCGGCUCGGCAGGCACAGGCACUUAUUGUGUGAACCUGGCACUGGGUCCAGUCUCCAGGACCUAUC	0.449
UCCAUUCUCACCUCUAUUUUGAGCUUCAGUGCUUUAUUUCAGUAUGAGGAAAAACAACAACAAACUGAAGUGCGCUUUCCGUCCUUUCAAAGGACAACUGUCGGGAAGGG	0.424
CAACUAUGCACACAGCACUCGCUCUUAGCUCCUCUGUCCGGGCUACUAGGAGUGAGACCAGCUUCUGGCAACUGCCCCAGCUCCAGGCCAUCCCAUAGCCCCUCCUCUUC	0.441
GAGGCCCUUUCAAACAUGAUCAAAGAUUUCCCAAUGUGAUCUCAUCAUCAUGGAUACUCAAUUUGUUUUUUCUUAUAGAGAAAAUGAGUAUAUAAGACAAUAUACAAGAA	0.38
CAAAGUAUGAUGGCCCUGUAGCCUCUGACUAGUCCUGAAACAGAAGGCUGCACUCUAGGCUGAACCAUGCUAAAAGCCCAUGCUUAAAUAAAAAAUUAUGUCCAAAAUCU	0.671
CCCCUUUACUUUUUGAAGCCAUACAAUGGAUGUCUAUAUGUUGCCUUUUUGAAGAUUAGGUGGUUUUGCUCUUUAACAUUUUUGUGACUUUGGUUUAUUUUCUUCCCAUG	0.82
GAACAAAUGUGGCCUUCUCAUGCCAUUUCCAGUAAUGACGCAGAGGAGGACGUGUUGCCUCAGAACAUGGGGACUUCCUAGAGGUCUGCUGAGCCCACAGAAAGAGCCAG	0.353

Block 3
Target: Ras GTPase-activating protein-binding protein 1, full length (G3BP1, Homo sapiens, UniProt Q13283)
Chain of UniProt Q13283 (whole entry, looked up): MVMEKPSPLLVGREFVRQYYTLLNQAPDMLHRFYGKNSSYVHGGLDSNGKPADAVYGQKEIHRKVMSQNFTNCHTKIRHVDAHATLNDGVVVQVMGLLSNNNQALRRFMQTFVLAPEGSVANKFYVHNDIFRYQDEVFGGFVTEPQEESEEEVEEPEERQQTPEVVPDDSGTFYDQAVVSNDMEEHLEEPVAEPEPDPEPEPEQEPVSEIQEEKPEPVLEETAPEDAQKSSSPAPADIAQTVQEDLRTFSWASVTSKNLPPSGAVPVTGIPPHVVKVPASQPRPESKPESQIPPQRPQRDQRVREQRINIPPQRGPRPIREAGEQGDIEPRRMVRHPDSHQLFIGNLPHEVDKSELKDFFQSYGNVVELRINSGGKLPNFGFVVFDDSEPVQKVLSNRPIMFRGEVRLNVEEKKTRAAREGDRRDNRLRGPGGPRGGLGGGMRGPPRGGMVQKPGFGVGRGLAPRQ
Method: RNA Bind-n-Seq
Molecule type: RNA
Medium: in vitro
Tested at: 200 nM
Notes: whole 134-nt RNA, ends assumed
With: 150 mM LiCl
Reference: input library
Reading: higher = stronger binding
Each molecule: 7-deaza-guanosine replaces G
Constant ends, left off below: GGGAGUUCUACAGUCCGACGAUC … UGGAAUUCUCGGGUGUCAAGG
Oligonucleotide	log2 enrichment
CAAGUCCUGUGCUACACAUCGUAUGUACCGAAUCGGUUUUGGUUUUGGGGUUUUGGAAAGUAUUAUGUUACGCCGUUCGGAUCUGCACUU	-1.29
GUCCUGUGCUACACAUCGUAUGUACCGAAUCGGGGUUUUUGGGUUUUUGGGUUUUUGGAAAGUAUUAUGUUACGCCGUUCGGAUCUGCAC	-0.185
AGUCCUGUGCUACACAUCGUAUGUACCGAAUCGGGUUUUUGGGAAAGGGUUUUUGGGAAAGUAUUAUGUUACGCCGUUCGGAUCUGCACU	-2.12
AGUCCUGUGCUACACAUCGUAUGUACCGAAUCGGGGUGGGGAAAAAGGGGUUUGGGGAAAGUAUUAUGUUACGCCGUUCGGAUCUGCACU	-0.791
AGUAGCUAUGGUCAACAAAGCAGCUAUGGGCAGCAGCCUCCCACUAGUUACCCACCCCAAACUGGAUCCUACAGCCAAGCUCCAAGUCAA	0.903
UGGCCAAUAGCAUCCUUUUCCAGUCUUCCGGUCUGACAAAUGGAAUAAUAGAAGAAAAGGACAUACAUGAAGAAUUGCCAAAACGGAAAG	-1.47
CAAGUCCUGUGCUACACAUCGUAUGUACCGAAUCGGAAAAAGGAGGAAAAAAAGGAAAGUAUUAUGUUACGCCGUUCGGAUCUGCACUUC	-0.314
UCCUCAAGUCCUGUGCUACACAUCGUAUGUACCGAAUCGGGUGGUGGUGGGAAAGUAUUAUGUUACGCCGUUCGGAUCUGCACUUCCAGC	0.228
GUCCUGUGCUACACAUCGUAUGUACCGAAUCGGUUUUUUGGGUUUUUUGGGUUUUUUGGAAAGUAUUAUGUUACGCCGUUCGGAUCUGCA	-0.949
UCCUGUGCUACACAUCGUAUGUACCGAAUCGGGAAAAAAAGGGUUUUUUUGGGUUUGGGAAAGUAUUAUGUUACGCCGUUCGGAUCUGCA	-1.87
CACAGACAACACGCACCCACACAGACACAGAGGGAAGGGGUUGGGAUGGGGACAGGGUGCACAGCAGGGCGGGGUAGGAUCCCAGCCCCU	0.95

Block 4
Target: Histone acetyltransferase KAT6A, winged helix 2, GST fusion (KAT6A, Homo sapiens, UniProt Q92794, residues 85-181)
Method: protein binding microarray
Molecule type: double-stranded DNA, one strand shown
Medium: in vitro
Tested at: not given
Notes: 8-mer, flanks averaged, mean of 2 arrays, mostly near background
Reference: not given
Reading: higher = stronger binding
Construct (chain): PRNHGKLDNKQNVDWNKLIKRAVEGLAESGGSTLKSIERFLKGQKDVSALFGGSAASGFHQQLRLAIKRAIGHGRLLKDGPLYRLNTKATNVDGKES
Oligonucleotide	E-score
ATGGTATC	0.0778
ATCTCTCG	0.009
AAATACGG	-0.0518
AACGGCTG	-0.0212
ACCCTCGC	-0.0437
AACCACGA	-0.238
AAAGAAAC	0.133
GCCGCGAC	0.112
CCCCACGA	0.0755
ATGCCCCC	-0.185
GGGTGCTA	-0.115
CAAGTGTA	-0.0857
CCGCGCCC	0.187
CTTCAAGC	-0.0905
CCTCGCAG	0.0333
ACCGGCCT	0.118
CGCATTGA	0.102
CCTAGGGC	0.13
ATCACACA	0.106
CCAACTTA	-0.0792

Block 5
Target: Protein C-ets-1 (ETS1, Homo sapiens, UniProt P14921, residues 1-441, K379A, full length assumed)
Method: protein-binding microarray
Molecule type: double-stranded DNA, one strand shown
Medium: in vitro
Tested at: not given
Notes: k-mer, scored over probes, only values ≥0.25
Reading: higher = stronger binding
Target sequence (chain): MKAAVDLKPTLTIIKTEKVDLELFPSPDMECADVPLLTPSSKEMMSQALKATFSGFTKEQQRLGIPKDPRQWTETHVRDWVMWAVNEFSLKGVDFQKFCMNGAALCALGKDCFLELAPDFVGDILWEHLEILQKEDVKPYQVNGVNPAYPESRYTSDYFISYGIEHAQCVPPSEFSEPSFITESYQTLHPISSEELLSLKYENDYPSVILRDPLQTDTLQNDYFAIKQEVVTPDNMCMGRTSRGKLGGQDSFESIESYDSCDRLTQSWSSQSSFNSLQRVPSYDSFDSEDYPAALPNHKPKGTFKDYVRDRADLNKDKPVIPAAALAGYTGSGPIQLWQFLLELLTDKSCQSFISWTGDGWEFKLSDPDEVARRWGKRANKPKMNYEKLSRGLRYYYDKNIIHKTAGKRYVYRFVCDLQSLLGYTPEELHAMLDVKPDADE
Oligonucleotide	E-score
GCCGGTTA	0.32
CGGTTCGA	0.316
GGTCGGTA	0.308
AGCGGAAA	0.256
CGCCAAAC	0.252
CTCCGGTC	0.341
ACTTACAA	0.302
ACTCGAAC	0.301
CGGTGTCA	0.301
CGCCGACG	0.274
ACTTTCTA	0.26
AACGGAAA	0.253
AACCGCCG	0.292
ATGCATCA	0.271
AACACATA	0.298
CCGATACA	0.262
GGTAATAA	0.267
CTCATATA	0.275
CATATACG	0.274
ACCCCGGC	0.37
CGACATAA	0.25

Repeated from above (block 4):
Oligonucleotide	E-score
ACCCTCGC	-0.0437
AACCACGA	-0.238
AAAGAAAC	0.133
GCCGCGAC	0.112
CCCCACGA	0.0755
ATGCCCCC	-0.185
GGGTGCTA	-0.115
CAAGTGTA	-0.0857
CCGCGCCC	0.187
CTTCAAGC	-0.0905
CCTCGCAG	0.0333
ACCGGCCT	0.118
CGCATTGA	0.102
CCTAGGGC	0.13
